Published values collected from several papers.
“And” joins repeats or separate records; there may be more than shown. ± marks the error that the study gave.
Chain of UniProt P06873 (whole entry, looked up): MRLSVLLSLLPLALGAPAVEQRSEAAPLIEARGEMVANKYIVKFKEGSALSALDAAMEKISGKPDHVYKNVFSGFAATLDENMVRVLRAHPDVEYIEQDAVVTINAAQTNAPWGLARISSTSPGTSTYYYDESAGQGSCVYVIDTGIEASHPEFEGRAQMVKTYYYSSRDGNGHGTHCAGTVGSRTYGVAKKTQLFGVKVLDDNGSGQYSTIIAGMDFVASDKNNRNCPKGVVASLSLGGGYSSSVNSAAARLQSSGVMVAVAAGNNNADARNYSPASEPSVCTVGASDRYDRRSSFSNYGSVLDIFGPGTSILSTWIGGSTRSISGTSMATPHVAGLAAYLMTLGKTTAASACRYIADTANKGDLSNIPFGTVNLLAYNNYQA

Compound	target or system	test	system	conditions	scale	quantity	result
COCCN(C)CC(=O)NC(Cc1ccc(-c2ccccc2)cc1)B(O)O (centres unmarked)	primary human hepatocytes	cytotoxicity		96 h		IC50	> 10 µM
C[N+](C)(CI)CCO	HK-2	cell growth or viability, ATP luminescence		24 h		IC50	> 150 µM
Fc1ccccc1N1CCN(C2CCCN(Cc3cccc(C(F)(F)F)c3)C2)CC1 (centres unmarked)	Trypanosoma cruzi	reporter mRNA translation, inhibitor, refers to: Renilla luciferase mRNA	cell-free extract	concentration not given, test 1	reference: positive over negative control	translation activity	98.5% and 95.3%
O=C(O)/C=C\C(=O)NCCCOCCOCCOCCCNC(=O)/C=C\C(=O)O	HFDPC	MTT		up to 1000 ppm, 24 h		cytotoxicity	not toxic
C=C1C(=O)OC2C1CCC(C)(O)C13C=CC(C)(C21)C1(C3)C(=O)OC2C3C(C)=CC(O)C3C(=C)CC(OC(=O)C(C)=CC)C21 (centres unmarked)	AML12 mouse hepatocytes	MTT		24 h, 10% FBS		maximum safe concentration	5 µM
CC(C)OCCOCc1ccc(OCC(O)CN(N=O)C(C)C)cc1 (centres unmarked)	Escherichia coli	Ames test	WP2 uvrA	50 µg/plate, 30 % rat S9	reference: solvent control	revertant fold increase	0.9 fold
C=C1C(=O)OC2C1CCC(C)(O)C13C=CC(C)(C21)C1(C3)C(=O)OC2C3C(C)=CC(=O)C3=C(C)CCC21 (centres unmarked)	AML12 mouse hepatocytes	MTT		24 h, 10% FBS		maximum safe concentration	20 µM
CCCC[C@H](NC(C)=O)C(=O)N[C@@H](CO)C(=O)N[C@H](C(=O)N1CCC[C@H]1C(=O)N[C@]1(C)CCCCCCC=CCCC[C@@](C)(C(=O)N[C@@H](Cc2ccccc2)C(=O)N[C@@H](CCCCN)C(=O)N[C@@H](CCCNC(=N)N)C(=O)N[C@@H](CC(C)C)C(=O)N[C@@H](CCC(N)=O)C(N)=O)NC(=O)[C@H](CCCNC(=N)N)NC(=O)[C@H](CCCC)NC(=O)[C@H](CC(C)C)NC(=O)[C@H](CCCNC(=N)N)NC(=O)[C@H](CCCNC(=N)N)NC(=O)[C@H](CCCNC(=N)N)NC1=O)[C@@H](C)O	Proteinase K (PROK, Engyodontium album, UniProt P06873)	proteolytic stability, LC-MS		25 µM, 615.1 min, pH 7.4		remaining intact peptide	37.9% and 35%
O=C1NC2(CC2)COc2ncc(F)cc2[C@H]2COCCN2c2ccn3ncc1c3n2	CHL	chromosomal aberration test		300 µg/mL, 4 h, with rat liver S9	reference: solvent control	relative population doubling	55.1%
C[C@H](NP(=O)(O)OC[C@H]1O[C@@](C#N)(c2ccc3c(N)ncnn23)[C@H](O)[C@@H]1O)C(=O)O	primary human hepatocytes	refers to: DNA		4 h		CC50	> 100 µM
C=C1C(=O)OC2C1CCC(C)(O)C13C=CC(C)(C21)C1(C3)C(=O)OC2C3=C(C)CC(O)C3C(=C)CC(OC(=O)C(C)=CC)C21 (centres unmarked)	AML12 mouse hepatocytes	MTT		24 h, 10% FBS		maximum safe concentration	10 µM
CC(C)C[C@H](NC(=O)[C@H](CC(N)=O)NC(=O)[C@H](CCCNC(=N)N)NC(=O)[C@@H](CC(C)C)NC(=O)[C@H](Cc1ccc(-c2ccccc2)cc1)NC(=O)[C@H](CC(=O)O)NC(=O)[C@H](CCCNC(=N)N)NC(=O)[C@@H](CC(C)C)NC(=O)[C@H](CCCCN)NC(=O)[C@H](CCC(N)=O)NC(=O)[C@@H](NC(=O)[C@@H](CC(C)C)NC(=O)[C@H](CCCCN)NC(=O)[C@H](CCCNC(=N)N)NC(=O)[C@H](Cc1ccc(-c2ccccc2)cc1)NC(=O)CN)C(C)C)C(=O)N[C@H](C(N)=O)C(C)C	human erythrocytes	hemolysis		1 h, 37 °C	reference: Triton X-100	HC50	100 µM
C=C1C(=O)OC2C1CCC(C)(O)C13C=CC(C)(C21)C1(C3)C(=O)OC2C3C(=C(C)CC(OC(C)=O)C21)CC(Cl)C3(C)O (centres unmarked)	AML12 mouse hepatocytes	MTT		24 h, 10% FBS		maximum safe concentration	10 µM
COc1cc(N2CCN(C(=O)CCOCCNC(=O)[C@@H]3CCCN3)CC2)ccc1Nc1ncc(Cl)c(Nc2ccccc2P(C)(C)=O)n1	NCI-H3122	CCK-8		2.5 µM, 48 h		viability	22% and 26% and 23%
Cc1cc(NC(=O)C23CC4CC(C2)CC(n2cnc([N+](=O)[O-])n2)(C4)C3)no1	Trypanosoma cruzi	reporter mRNA translation, inhibitor, refers to: Renilla luciferase mRNA	cell-free extract	concentration not given, test 1	reference: positive over negative control	translation activity	104% and 114%
COc1cc(N2CCN(C(=O)C3CCCN3)CC2)ccc1Nc1ncc(Cl)c(Nc2ccccc2P(C)(C)=O)n1 (centres unmarked)	Ba/F3 EML4-ALK	cell growth or viability, CCK-8		1 µM, 3 h		viability	72% and 68% and 71%

Compound	target or system	test	system	conditions	scale	quantity	result
C=C1C(=O)OC2C1CCC(C)(O)C13C=CC(C)(C21)C1(C3)C(=O)OC2C3C(=C(C)CC(OC(C)=O)C21)CC(O)C3(C)Cl (centres unmarked)	AML12 mouse hepatocytes	MTT		24 h, 10% FBS		maximum safe concentration	20 µM
O=C1C2CC3CC1CC(C(=O)N1CCN(c4ccc([N+](=O)[O-])c5ncccc45)CC1)(C3)C2	Salmonella typhimurium	Ames test	TA97a	0.78 µg/well, without S9 activation		revertant colony count	23 colonies/well
CN1CCCNC(=O)c2cccc(c2)C(=O)NCCCN(C)CCCNc2cccc3c2C(=O)c2cccc(c2C3=O)NCCC1	mouse bone marrow cells	CCK-8		0.015 µM, 48 h	reference: untreated	viability	103%
CCOC(=O)c1cn(CC(c2c[nH]c3cc(Br)ccc23)c2c[nH]c3cc(Br)ccc23)c(C)c1C(=O)OC	DH82	cell growth or viability, MTS		24 h		CC50	> 20 µM
C=C1C(=O)OC2C1CCC(C)(O)C13C=CC(C)(C21)C1(C3)C(=O)OC2C3C(C)=CCC3C(C)(O)CC(O)C21 (centres unmarked)	AML12 mouse hepatocytes	MTT		24 h, 10% FBS		maximum safe concentration	40 µM
CC(C)C[C@H](NC(=O)[C@H](CC(N)=O)NC(=O)[C@H](CCCNC(=N)N)NC(=O)[C@@H](CC(C)C)NC(=O)[C@H](Cc1ccc(-c2ccccc2)cc1)NC(=O)[C@H](CC(=O)O)NC(=O)[C@H](CCCCN)NC(=O)[C@@H](CC(C)C)NC(=O)[C@H](CCCNC(=N)N)NC(=O)[C@H](CCC(N)=O)NC(=O)[C@@H](NC(=O)[C@@H](CC(C)C)NC(=O)[C@H](CCCNC(=N)N)NC(=O)[C@H](CCCCN)NC(=O)[C@H](Cc1ccc(-c2ccccc2)cc1)NC(=O)CN)C(C)C)C(=O)N[C@H](C(N)=O)C(C)C	human erythrocytes	hemolysis		1 h, 37 °C	reference: Triton X-100	HC50	150 µM
COC1C(c2ccc(Cl)c(Cc3ccc(OC4CCOC4)cc3)c2)OC(CO)C(O)C1O (centres unmarked)	H9c2	CCK-8		0.1 µM, together with: glucose deprivation	reference: control	viability	49.6 ± 5.48%
C[S@@](=N)(=O)c1ccc(C(=O)Nc2cc(-c3ccc(F)cc3)ccc2N)cc1	KP mouse cells	RNA-seq		1 µM, 7 days		transcriptome change	no effect
Cl.NCc1ccc2c(c1)CN(C1CCC(=O)NC1=O)C2=O (centres unmarked)	SNU-398	CellTiter-Glo		concentration not given, 72 h		minimum viability	30.7 ± 11.3%
O=S(=O)(Nc1ccc(CO)cc1)c1ccc(Cl)c(Cl)c1	cryopreserved human hepatocytes	pan-CYP inhibition		1 µM, together with: 1 mM 1-aminobenzotriazole and 15 µM tienilic acid		metabolism inhibited by ABT and TA	24%
CCCn1c2ccc([N+](=O)[O-])cc2c(=O)n1Cc1ccccc1	BALB/c mouse peritoneal macrophages	cytotoxicity, resazurin		48 h, 10% fetal bovine serum		CC50	4.68 µM
OC[C@H]1O[C@@H](c2ccc(Cl)c(Cc3ccc(OC4CCCC4)cc3)c2)[C@H](O)[C@@H](O)[C@@H]1O	H9c2	CCK-8		0.1 µM, together with: glucose deprivation	reference: control	viability	48.5 ± 6.33%
C=C1C(=O)OC2C1CCC(C)(O)C13C=CC(C)(C21)C1(C3)C(=O)OC2C3C(C)=CCC3C(C)(OC(C)=O)CC(O)C21 (centres unmarked)	AML12 mouse hepatocytes	MTT		24 h, 10% FBS		maximum safe concentration	5 µM
CO[C@@H]1[C@@H](O)[C@H](c2ccc(Cl)c(Cc3ccc(O[C@H]4CCOC4)cc3)c2)O[C@H](CO)[C@H]1O	H9c2	CCK-8		0.1 µM, together with: glucose deprivation	reference: control	viability	43.8 ± 7.86%
C=C1C(=O)OC2C1CCC(C)(O)C13C=CC(C)(C21)C1(C3)C(=O)OC2C3C(C)=CCC3C(=C)CC(OC(C)=O)C21 (centres unmarked)	AML12 mouse hepatocytes	MTT		24 h, 10% FBS		maximum safe concentration	10 µM
C[C@@H]1O[C@H]2O[C@@H]3C4(O)C(=O)c5cccc(O)c5C(=O)C4(O)O[C@]3(C)[C@]21O (some centres unmarked)	HFF	cell growth or viability, MTT		48 h		CC50	195 µM

For quick reference, copied from above:
Compound	target or system	test	system	conditions	scale	quantity	result
OC[C@H]1O[C@@H](c2ccc(Cl)c(Cc3ccc(OC4CCCC4)cc3)c2)[C@H](O)[C@@H](O)[C@@H]1O	H9c2	CCK-8		0.1 µM, together with: glucose deprivation	reference: control	viability	48.5 ± 6.33%
C=C1C(=O)OC2C1CCC(C)(O)C13C=CC(C)(C21)C1(C3)C(=O)OC2C3C(C)=CCC3C(C)(OC(C)=O)CC(O)C21 (centres unmarked)	AML12 mouse hepatocytes	MTT		24 h, 10% FBS		maximum safe concentration	5 µM
CO[C@@H]1[C@@H](O)[C@H](c2ccc(Cl)c(Cc3ccc(O[C@H]4CCOC4)cc3)c2)O[C@H](CO)[C@H]1O	H9c2	CCK-8		0.1 µM, together with: glucose deprivation	reference: control	viability	43.8 ± 7.86%
